Assay results pooled from the literature.
Lines come from different studies, so protocols differ. ± marks the error that the study gave.
Aminopeptidase N: Aminopeptidase N (Neisseria meningitidis, UniProt Q9JYV4)
Oprd1: Delta-type opioid receptor (Oprd1, Rattus norvegicus, UniProt P33533)
Sequence of UniProt P33533 (whole entry, looked up): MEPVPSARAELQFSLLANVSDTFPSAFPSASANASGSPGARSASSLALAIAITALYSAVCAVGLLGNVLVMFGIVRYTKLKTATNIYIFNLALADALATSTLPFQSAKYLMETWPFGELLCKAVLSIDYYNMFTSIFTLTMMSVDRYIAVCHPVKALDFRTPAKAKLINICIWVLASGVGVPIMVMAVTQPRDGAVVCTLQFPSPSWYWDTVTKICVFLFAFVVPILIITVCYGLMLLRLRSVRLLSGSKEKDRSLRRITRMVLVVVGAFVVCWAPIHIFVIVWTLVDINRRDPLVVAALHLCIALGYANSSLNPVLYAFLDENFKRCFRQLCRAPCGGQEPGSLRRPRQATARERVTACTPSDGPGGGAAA
Sequence of UniProt P00747 (whole entry, unmodified, looked up): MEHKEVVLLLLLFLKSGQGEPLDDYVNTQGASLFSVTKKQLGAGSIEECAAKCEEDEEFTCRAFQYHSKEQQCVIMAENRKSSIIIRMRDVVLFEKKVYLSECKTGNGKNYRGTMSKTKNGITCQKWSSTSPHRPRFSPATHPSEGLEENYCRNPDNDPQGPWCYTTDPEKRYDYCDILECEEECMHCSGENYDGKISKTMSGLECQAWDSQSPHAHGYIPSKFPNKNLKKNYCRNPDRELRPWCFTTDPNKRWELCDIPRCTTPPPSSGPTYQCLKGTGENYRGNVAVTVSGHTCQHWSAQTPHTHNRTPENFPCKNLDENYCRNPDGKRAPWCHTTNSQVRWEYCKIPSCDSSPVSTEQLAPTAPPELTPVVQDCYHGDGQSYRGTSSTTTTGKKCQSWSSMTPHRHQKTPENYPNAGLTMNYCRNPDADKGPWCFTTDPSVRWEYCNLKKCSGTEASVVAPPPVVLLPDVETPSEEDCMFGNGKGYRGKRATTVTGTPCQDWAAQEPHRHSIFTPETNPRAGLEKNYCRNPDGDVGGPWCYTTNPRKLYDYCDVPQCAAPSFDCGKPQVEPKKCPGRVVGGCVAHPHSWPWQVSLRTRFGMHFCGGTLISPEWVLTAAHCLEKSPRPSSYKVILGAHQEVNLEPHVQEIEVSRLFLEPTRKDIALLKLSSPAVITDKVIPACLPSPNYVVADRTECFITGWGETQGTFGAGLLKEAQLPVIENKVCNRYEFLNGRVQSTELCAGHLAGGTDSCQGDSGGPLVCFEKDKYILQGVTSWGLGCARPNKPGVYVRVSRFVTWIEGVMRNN
Sequence of UniProt O43741 (whole entry, looked up): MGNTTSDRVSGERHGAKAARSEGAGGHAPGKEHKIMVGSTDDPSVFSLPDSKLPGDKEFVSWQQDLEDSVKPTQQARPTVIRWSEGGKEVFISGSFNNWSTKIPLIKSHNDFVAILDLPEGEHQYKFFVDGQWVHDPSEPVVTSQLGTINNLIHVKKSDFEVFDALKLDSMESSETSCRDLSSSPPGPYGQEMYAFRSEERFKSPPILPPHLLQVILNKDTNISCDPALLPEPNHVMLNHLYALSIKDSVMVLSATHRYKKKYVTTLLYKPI
Sequence of UniProt O96028 (whole entry, looked up): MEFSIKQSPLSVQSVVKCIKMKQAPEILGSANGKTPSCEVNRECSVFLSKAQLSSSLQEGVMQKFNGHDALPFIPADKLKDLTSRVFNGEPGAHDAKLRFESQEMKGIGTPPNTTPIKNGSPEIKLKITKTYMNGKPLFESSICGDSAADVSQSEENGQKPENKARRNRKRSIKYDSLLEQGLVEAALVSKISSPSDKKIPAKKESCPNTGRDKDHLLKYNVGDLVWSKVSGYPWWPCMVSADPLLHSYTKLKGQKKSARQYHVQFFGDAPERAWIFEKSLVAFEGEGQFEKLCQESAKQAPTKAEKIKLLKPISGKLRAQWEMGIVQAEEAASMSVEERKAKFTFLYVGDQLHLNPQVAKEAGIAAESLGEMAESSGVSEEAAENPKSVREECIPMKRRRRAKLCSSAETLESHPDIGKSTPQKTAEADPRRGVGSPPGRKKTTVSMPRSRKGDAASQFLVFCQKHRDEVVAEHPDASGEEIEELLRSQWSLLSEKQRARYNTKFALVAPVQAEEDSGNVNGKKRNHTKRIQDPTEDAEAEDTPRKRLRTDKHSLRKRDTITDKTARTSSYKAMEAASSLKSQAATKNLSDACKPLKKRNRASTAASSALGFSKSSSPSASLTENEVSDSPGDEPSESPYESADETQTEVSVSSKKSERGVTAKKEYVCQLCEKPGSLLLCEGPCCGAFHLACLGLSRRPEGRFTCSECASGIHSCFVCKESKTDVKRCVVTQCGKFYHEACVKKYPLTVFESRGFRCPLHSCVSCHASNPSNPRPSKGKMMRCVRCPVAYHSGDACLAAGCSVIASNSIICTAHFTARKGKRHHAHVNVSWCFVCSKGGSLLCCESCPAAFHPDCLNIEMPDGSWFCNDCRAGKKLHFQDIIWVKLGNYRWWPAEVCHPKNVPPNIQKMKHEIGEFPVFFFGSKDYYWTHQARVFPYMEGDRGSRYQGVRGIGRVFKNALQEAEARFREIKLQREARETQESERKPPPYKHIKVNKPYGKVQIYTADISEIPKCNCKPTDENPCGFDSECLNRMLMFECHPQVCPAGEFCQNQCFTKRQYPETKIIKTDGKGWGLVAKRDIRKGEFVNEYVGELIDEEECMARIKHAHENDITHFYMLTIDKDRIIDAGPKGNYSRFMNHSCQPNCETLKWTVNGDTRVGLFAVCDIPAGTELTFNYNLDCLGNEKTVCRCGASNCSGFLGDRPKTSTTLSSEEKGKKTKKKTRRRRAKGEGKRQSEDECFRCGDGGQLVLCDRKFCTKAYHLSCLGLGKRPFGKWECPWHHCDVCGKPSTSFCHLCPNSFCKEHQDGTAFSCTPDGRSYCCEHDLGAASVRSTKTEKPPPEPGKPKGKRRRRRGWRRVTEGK
Sequence of UniProt P54760 (whole entry, looked up): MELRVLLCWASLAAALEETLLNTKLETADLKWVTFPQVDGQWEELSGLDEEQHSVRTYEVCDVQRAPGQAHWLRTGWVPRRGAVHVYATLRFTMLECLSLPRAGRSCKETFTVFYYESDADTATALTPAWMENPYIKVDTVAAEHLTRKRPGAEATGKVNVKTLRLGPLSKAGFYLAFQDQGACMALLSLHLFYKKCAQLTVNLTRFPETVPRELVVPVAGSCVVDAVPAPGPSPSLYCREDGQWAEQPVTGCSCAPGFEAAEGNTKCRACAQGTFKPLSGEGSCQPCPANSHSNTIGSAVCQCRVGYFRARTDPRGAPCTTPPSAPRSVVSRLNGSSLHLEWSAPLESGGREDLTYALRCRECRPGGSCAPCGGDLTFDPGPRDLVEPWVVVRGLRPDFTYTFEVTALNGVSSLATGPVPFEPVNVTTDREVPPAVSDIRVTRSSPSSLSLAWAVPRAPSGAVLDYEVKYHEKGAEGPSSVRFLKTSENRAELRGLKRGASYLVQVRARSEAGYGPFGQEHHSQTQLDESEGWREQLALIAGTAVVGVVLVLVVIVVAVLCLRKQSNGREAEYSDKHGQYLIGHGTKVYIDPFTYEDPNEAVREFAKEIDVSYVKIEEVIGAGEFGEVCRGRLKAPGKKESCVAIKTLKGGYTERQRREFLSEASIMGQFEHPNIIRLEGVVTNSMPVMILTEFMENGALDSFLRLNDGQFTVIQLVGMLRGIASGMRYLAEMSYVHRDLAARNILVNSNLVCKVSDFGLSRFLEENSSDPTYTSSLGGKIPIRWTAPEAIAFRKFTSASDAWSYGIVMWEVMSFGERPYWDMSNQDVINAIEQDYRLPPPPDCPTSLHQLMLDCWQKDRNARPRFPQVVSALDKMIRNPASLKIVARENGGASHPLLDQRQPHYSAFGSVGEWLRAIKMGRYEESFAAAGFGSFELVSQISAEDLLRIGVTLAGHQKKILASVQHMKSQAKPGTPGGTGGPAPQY
Sequence of UniProt P14416 (whole entry, looked up): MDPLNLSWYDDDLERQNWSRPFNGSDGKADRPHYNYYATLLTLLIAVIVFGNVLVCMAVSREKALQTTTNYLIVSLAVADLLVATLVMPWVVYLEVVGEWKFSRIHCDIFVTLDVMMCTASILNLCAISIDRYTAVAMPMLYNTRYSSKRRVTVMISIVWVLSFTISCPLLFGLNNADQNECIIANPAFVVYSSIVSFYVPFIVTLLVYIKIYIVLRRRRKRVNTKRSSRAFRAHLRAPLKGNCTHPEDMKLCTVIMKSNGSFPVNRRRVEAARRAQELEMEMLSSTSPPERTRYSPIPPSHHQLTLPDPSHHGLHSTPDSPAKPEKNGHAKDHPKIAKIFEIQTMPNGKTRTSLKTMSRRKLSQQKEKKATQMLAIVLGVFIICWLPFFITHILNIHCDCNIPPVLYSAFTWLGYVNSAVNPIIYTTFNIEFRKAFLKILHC
Sequence of UniProt P17931 (whole entry, looked up): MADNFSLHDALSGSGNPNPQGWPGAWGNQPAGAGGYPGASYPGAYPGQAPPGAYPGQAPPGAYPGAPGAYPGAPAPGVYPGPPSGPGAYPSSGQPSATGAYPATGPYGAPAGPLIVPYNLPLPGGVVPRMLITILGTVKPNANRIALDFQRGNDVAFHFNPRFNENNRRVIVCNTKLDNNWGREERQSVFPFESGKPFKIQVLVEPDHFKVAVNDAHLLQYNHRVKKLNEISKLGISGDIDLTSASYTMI
Sequence of UniProt P08482 (whole entry, looked up): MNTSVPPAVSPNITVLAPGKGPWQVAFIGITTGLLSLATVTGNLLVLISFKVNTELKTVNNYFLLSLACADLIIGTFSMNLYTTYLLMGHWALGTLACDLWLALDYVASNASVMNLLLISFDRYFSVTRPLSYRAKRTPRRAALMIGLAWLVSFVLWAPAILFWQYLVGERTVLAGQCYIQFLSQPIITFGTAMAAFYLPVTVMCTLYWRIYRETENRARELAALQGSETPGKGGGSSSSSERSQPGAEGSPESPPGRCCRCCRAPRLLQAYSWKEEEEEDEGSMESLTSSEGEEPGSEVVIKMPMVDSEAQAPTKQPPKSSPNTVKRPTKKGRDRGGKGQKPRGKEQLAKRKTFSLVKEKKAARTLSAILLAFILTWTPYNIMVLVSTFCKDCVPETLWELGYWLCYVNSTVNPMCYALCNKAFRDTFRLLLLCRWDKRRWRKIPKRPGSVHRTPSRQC

COC(=O)C1C(OC(c2ccc(Cl)cc2)c2ccc(Cl)cc2)CC2CCC1N2C (single isomer, unassigned)  Ki (DRD2 (Homo sapiens, UniProt P14416); binding, radioligand displacement; inactive if below 75% at 10000 nM): inactive
Cn1ccc(-c2ccc(Cn3cc(C(=O)N[C@H]4CCCC[C@@H]4O)c4c(F)cc(F)cc43)cn2)n1  maximum response (Chrm1 (Rattus norvegicus, UniProt P08482); calcium mobilization, positive allosteric modulator; CHO cells; with: EC20 acetylcholine; relative to: ACh maximum): 92 ± 4%
CC(=O)N[C@H]1[C@H]([C@H](O)[C@H](O)CO)O[C@@](OCCCNC(=O)OCc2ccccc2)(C(=O)O)C[C@@H]1O[C@H]1O[C@H](CO)[C@H](O)[C@H](O)[C@H]1O  Km (siaD (Neisseria meningitidis, UniProt O33390); substrate; with: CMP-Neu5Ac): 180 ± 40 µM
CC(=O)/C(C#N)=C/c1cccc(C(N)=O)c1  binding free energy (Genome polyprotein, 3C protease (Human enterovirus D68, UniProt Q68T42, C1641Y/I1565V/I1594T/R1603K/Y1579H); ITC; enterovirus D68; 25 °C, with: DTT 10 mM): -6.5 kcal/mol
Cn1cc(-c2cccc(CN3CCC4(CC3)COc3c4ccc4c3CN(C3CCC(=O)NC3=O)C4=O)c2)cn1 (centres unmarked)  Dmax (CRBN/Zinc finger protein Helios (Homo sapiens, UniProt Q96SW2+Q9UKS7); Helios degradation, degrader, HiBiT; HEK293; 6 h): 89%
CCN(Cc1ccccc1)C(=O)CCc1nc(CN2CCN(C(=O)Cc3ccc(OC)c(OC)c3)CC2)no1  V1/2 of activation (Sodium channel protein type 11 subunit alpha (Scn11a, Rattus norvegicus, UniProt O88457); whole-cell patch clamp; rat DRG neurons; 100 nM): -39.5 ± 1.35 mV
CC1CN1c1cc(O)c2nc(N)sc2c1 (centres unmarked)  covalent engagement (Histone-lysine N-methyltransferase NSD2, SET domain (NSD2, Homo sapiens, UniProt O96028); mass spectrometry; 10 µM, 18 h, 32 °C, 1 µM protein): 10%
CSCC[C@H](N)C(=O)Nc1ccc2c(CC(N)=O)cc(=O)oc2c1  relative hydrolysis rate (Aminopeptidase N; enzyme activity, substrate; 3 µM, pH 7.5, 37 °C; relative to: L-hArg-ACC): < 20%
Cc1cc(O)cc(C)c1CC(N)C(=O)NC1CCNc2c(Cc3ccccc3)cccc21 (centres unmarked)  maximal stimulation (Oprd1; agonist; C6 cell membranes; 10 µM; relative to: DPDPE): inactive
CC[C@H](C)[C@H](NC(=O)[C@H](C)NC(=O)[C@H](CCC(=O)O)NC(C)=O)C(=O)NC1CCCC=CCCCC(C(=O)N[C@@H](CCC(N)=O)C(=O)N[C@@H](CC(C)C)C(=O)N[C@@H](CC(C)C)C(=O)N[C@@H](Cc2ccccc2)C(=O)N[C@H](C(=O)N[C@@H](Cc2c[nH]cn2)C(=O)N[C@@H](Cc2ccccc2)C(=O)N[C@@H](CCCNC(=N)N)C(=O)N[C@H](C(=O)NCC(N)=O)[C@@H](C)CC)[C@@H](C)CC)NC(=O)[C@H](CC(C)C)NC(=O)[C@H]([C@@H](C)CC)NC(=O)[C@H](CCCNC(=N)N)NC1=O (some centres unmarked)  minimum DNA retardation concentration (HIV-1 integrase and DNA substrate; DNA binding, gel retardation; 2 h, 37 °C, with: radiolabelled oligonucleotide DNA): 37 µM
C=C(C)C(=O)Oc1ccc(C(C)(C)c2ccc(OC(=O)C(=C)C)cc2)cc1  maximal effect concentration (Androgen receptor (AR, Homo sapiens, UniProt P10275); reporter gene, antagonist; CHO; with: 0.1 nM R1881): 20 µM
CS(C)(=O)=Nc1ccc(-c2ccc(-c3nc4cc(O[C@@H]5CO[C@H]6[C@@H]5OC[C@H]6O)[nH]c4cc3F)cc2)cc1  EC150 (PRKAB2/PRKAA1, with gamma1 subunit (Homo sapiens, UniProt O43741+Q13131); enzyme activity, activator; 60 min, 50% above basal activity, with: ATP 50 µM): 0.384 nM
CC(C)C[C@@H](NC(=O)[C@@H](CCCCN)NC(=O)[C@@H](CCCCN)NC(=O)CNC(=O)[C@@H](CCCNC(=N)N)NC(=O)[C@H](N)CCCNC(=N)N)C(=O)N[C@H](CC(C)C)C(=O)N[C@H](CC(C)C)C(=O)N[C@H](CC(C)C)C(=O)N[C@H](CC(C)C)C(=O)N[C@H](CCCCN)C(=O)N[C@H](CCCCN)C(=O)N[C@H](CCCCN)C(=O)NCC(=O)O  fraction client-bound (dnaK, ADP-bound (Escherichia coli, UniProt P0A6Y8); native gel shift; 50 µM, ADP-bound DnaK): 0 ± 0.05
CC(=O)NCC(=O)NCC(=O)N[C@@H](CCCCNP(=O)(O)O)C(=O)NCC(=O)NCC(N)=O  first-order rate constant (Phospholysine phosphohistidine inorganic pyrophosphate phosphatase (LHPP, Homo sapiens, UniProt Q9H008); substrate; 100 µM, pH 7.8): 0.000344 s⁻¹
CC(=O)N[C@H]1C(O)O[C@H](CO)[C@@H](O[C@@H]2O[C@H](CO)[C@H](O)[C@H](O)[C@H]2O)[C@@H]1O (some centres unmarked)  stoichiometry (Galectin-3 (LGALS3, Homo sapiens, UniProt P17931); ITC): 1.08
CC(C)CCN(Cc1ccc(Cl)cc1)c1nc(C#N)nc(N2CCOCC2)n1  selectivity ratio (CPL (Toxoplasma gondii, UniProt Q6DMN0); enzyme activity, inhibitor; relative to: human over Toxoplasma IC50): 0.2
C=C(c1ccccc1)[C@@H](N)P(=O)(O)O  time to complete fast binding step (PAL1 (Petroselinum crispum, UniProt P24481); enzyme activity, inhibitor; concentration not given, with: L-phenylalanine): ≤ 1 min
CC(C)C[C@H](NC(=O)[C@H](CCC(=O)O)NC(=O)[C@H](C)NC(=O)[C@H](CCC(=O)O)NC(=O)[C@H](CCC(=O)O)NC(=O)[C@H](Cc1c[nH]cn1)NC(=O)[C@H](CCCNC(=N)N)NC(=O)[C@H](CCC(=O)O)NC(=O)[C@H](CC(N)=O)NC(=O)[C@H](CCCCN)NC(=O)[C@H](CC(C)C)NC(=O)[C@H](CCCNC(=N)N)NC(=O)[C@H](CCC(N)=O)NC(=O)[C@H](CC(C)C)NC(=O)[C@H](CCC(N)=O)NC(=O)[C@H](C)NC(=O)[C@H](CC(N)=O)NC(=O)[C@H](C)NC(=O)[C@@H](NC(=O)[C@H](CC(C)C)NC(=O)[C@H](CCCCN)NC(=O)[C@H](CCC(=O)O)NC(=O)[C@@H](NC(=O)[C@H](CO)NC(=O)CN)C(C)C)[C@@H](C)O)C(=O)N[C@@H](CCC(=O)O)C(=O)N[C@@H](CCCNC(=N)N)C(=O)N[C@@H](CC(C)C)C(=O)N[C@@H](CCCCN)C(=O)N[C@@H](CO)C(=O)N[C@@H](CCC(=O)O)C(=O)N[C@@H](Cc1ccc(O)cc1)C(=O)O  koff (Plasminogen (PLG, Homo sapiens, UniProt P00747, C188G/E240D/L256Y); binding, SPR; pH 7.4): 0.086 s⁻¹
NC(=O)Cc1cc(=O)oc2cc(NC(=O)[C@@H](N)CCC3CCCCC3)ccc12  Km (Aminopeptidase N; enzyme activity, substrate; pH 7.5, 37 °C): 41.4 ± 1.3 µM
Nc1nc2c([C@@H]3O[C@@H]4COP(=O)(O)O[C@H]5[C@@H](O)[C@H](n6cnc7c(=O)[nH]c(N)nc76)O[C@@H]5COP(=O)(O)O[C@H]4[C@H]3O)scc2c(=O)[nH]1  association rate constant k1 (rocR (Pseudomonas aeruginosa, UniProt Q9HX69); substrate, HPLC; 10 µM, with: 100 nM enzyme): 21000 ± 1000 M⁻¹ s⁻¹
CC[C@H](C)[C@H](NC(=O)[C@H](CC(N)=O)NC(=O)[C@H](CC(N)=O)NC(=O)[C@@H](N)CCCNC(N)=O)C(=O)N1C[C@@H](n2cc([C]34[CH]5[CH]6[CH]7[CH]3[Fe]6754389%10[CH]4[CH]3[CH]8[CH]9[CH]4%10)nn2)C[C@H]1C(=O)N[C@@H](Cc1c[nH]c2ccccc12)C(=O)N[C@@H](CO)C(N)=O (some centres unmarked)  binding entropy term -TΔS (env (Human immunodeficiency virus type 1 group M subtype B, UniProt P35961); ITC; concentration not given, pH 7.4, 25 °C): 3.6 ± 1.6 kcal/mol
CCNC(=O)c1cc(Cc2ccccc2)cc2c1NCCC2NC(=O)C(N)Cc1c(C)cc(O)cc1C (centres unmarked)  Ke (Oprd1; GTPγS binding, antagonist; with: SNC80): 25.4 nM
CC(=O)NC(Cc1ccc(Br)c(Cl)c1)C(=O)N[C@@H](C)C(=O)N1CCC[C@H]1C(=O)N1CCC[C@H]1C(=O)N[C@@H](CCC(=O)O)C(=O)N[C@@H](Cc1c[nH]cn1)C(=O)N[C@@H](CO)C(=O)N[C@H](C(=O)N[C@@H](C)C(N)=O)[C@@H](C)OP(=O)(O)O (some centres unmarked)  inhibition (EPHB4 (Homo sapiens, UniProt P54760); cell-free assay, inhibitor; 10 µM): 0.5%

Some of these lines once more:
C=C(C)C(=O)Oc1ccc(C(C)(C)c2ccc(OC(=O)C(=C)C)cc2)cc1  maximal effect concentration (Androgen receptor (AR, Homo sapiens, UniProt P10275); reporter gene, antagonist; CHO; with: 0.1 nM R1881): 20 µM
CS(C)(=O)=Nc1ccc(-c2ccc(-c3nc4cc(O[C@@H]5CO[C@H]6[C@@H]5OC[C@H]6O)[nH]c4cc3F)cc2)cc1  EC150 (PRKAB2/PRKAA1, with gamma1 subunit (Homo sapiens, UniProt O43741+Q13131); enzyme activity, activator; 60 min, 50% above basal activity, with: ATP 50 µM): 0.384 nM
CC(C)C[C@@H](NC(=O)[C@@H](CCCCN)NC(=O)[C@@H](CCCCN)NC(=O)CNC(=O)[C@@H](CCCNC(=N)N)NC(=O)[C@H](N)CCCNC(=N)N)C(=O)N[C@H](CC(C)C)C(=O)N[C@H](CC(C)C)C(=O)N[C@H](CC(C)C)C(=O)N[C@H](CC(C)C)C(=O)N[C@H](CCCCN)C(=O)N[C@H](CCCCN)C(=O)N[C@H](CCCCN)C(=O)NCC(=O)O  fraction client-bound (dnaK, ADP-bound (Escherichia coli, UniProt P0A6Y8); native gel shift; 50 µM, ADP-bound DnaK): 0 ± 0.05
